Experimental data pooled from the literature.
Lines come from different studies, so protocols differ. ± marks the error that the study gave.

Under “relative organ weight”, `O=C(O)CCCOc1ccc(F)cc1-c1cc(-c2ccccc2C(F)(F)F)n(-c2ccccc2)n1` is recorded as 0.11 ± 0.02 g% (male Crl:CD(SD) rats, thymus; intravenous, 25 µg/kg, 14 d).
Under “subjects with drug-related headache”, `C[C@]1(CO)Cc2ncn(-c3ccc(C#N)c(Cl)c3)c2C(=O)O1` is recorded as 0% (human; 20 mg multiple doses, fasted).
`CN[C@@H](C)C(=O)N[C@H]1CN(S(=O)(=O)c2cccc(S(=O)(=O)N3CC[C@H]4CC[C@@H](C(=O)NC(c5ccccc5)c5ccccc5)N4C(=O)[C@@H](NC(=O)[C@H](C)NC)C3)c2)CC[C@H]2CC[C@@H](C(=O)NC(c3ccccc3)c3ccccc3)N2C1=O` — result for “treatment-related ALT elevation incidence”: 0% (patients with advanced solid tumours; 0.6 mg, phase I monotherapy).
`C[C@H]1COCCN1c1nc(NCc2cccnc2C(F)(F)F)c2cccnc2n1` has a QRS change of 5.6% (anaesthetized rat; intravenous, 3 mg/kg; baseline: control).
`CC(C)(C)c1cc(-n2nc3ccc(Cl)cc3n2)c(O)c(C(C)(C)C)c1` has a mass recovery of 48.8% (EpiSkin reconstructed epidermis; 36 h).
`COc1ccc(-c2c(-c3ccc(C#N)c(F)c3)nc(N3CCC(N)CC3)n(C)c2=O)cc1F`: “treatment-related adverse event incidence” 0% (measured: Dysgeusia; human patients; oral, dose not given, grade 3 to 4, dose escalation, NG).
`COc1cc2c3c(n(CCCN4CCOCC4)c(=O)c2cc1OC)-c1cc2c(cc1C3=O)OCO2`: “maximum tolerated dose” 24 mg/m²/d (rat; intravenous slow bolus, once daily for 5 days).
`N[C@@H]1c2ccccc2OC12CCN(c1cnc3c(N4CCCc5ncccc54)n[nH]c3n1)CC2` — result for “incidence of any TEAE”: 100% (patients advanced metastatic solid tumours; oral, 60 mg once daily, pooled RP2D cohorts).
For `Cc1cccc(Cn2nc(C3CC3)c3c(NC(=O)c4cnc5cc(OCCN6CCN(C)CC6)ccn45)cccc32)n1`, “adverse events incidence” read 14.3% (measured: Amylase increased; human advanced solid tumours; oral, 400 mg, all-causality).
`COc1cc(C(=O)NC2CCN(C)CC2)c(F)cc1Nc1ncc(C(F)(F)F)c(Oc2cccc3c2C(=O)N(C)C3)n1` — result for “fraction excreted in urine (0-48 h)”: 9.08% (human patients, urine; oral, 200 mg single dose, geometric mean; baseline: dose).
`O=C(Nc1ccccc1)C1CCN(C(=O)Oc2cccnc2)CC1`: “subjects with adverse event” 7.1% (measured: metabolism and nutrition disorders; healthy women; oral, 60 mg, 7 days).
For `COc1ncccc1-c1cnn2ccc(N3CCN(C(=O)OC(C)C)CC3)nc12`, the drug concentration was 15 µM (mouse, SNL model, plasma; oral, 60 mg/kg, 30 min).
`CC1(C)C(/C=C(\Cl)C(F)(F)F)C1C(=O)OC(C#N)c1cccc(Oc2ccccc2)c1` (stereo not drawn) — result for “enzyme contribution to clearance”: 0.36% (measured: CYP2B6; human, age 5 years).
For `CCS(=O)(=O)Nc1ccc(Oc2ccc(F)cc2F)c(-c2cn(C)c(=O)c3[nH]ccc23)c1`, “treatment-emergent adverse events” read 5% (serious respiratory failure; human, relapsed/refractory AML; oral, dose not given).
`C[C@@H](NC(=O)N1C(=O)[C@H](Cc2ccnc(N)c2)[C@H]1C(=O)O)C1CCCCC1`: “incidence of decreased neutrophil” 0% (healthy adult Chinese volunteers; continuous intravenous infusion, 2.25 mg/kg/h, 5-day infusion, CTCAE 5.0 grading).
`COc1ccnc(C(=O)N[C@H]2COC(=O)[C@H](Cc3ccccc3)[C@@H](OC(=O)C(C)C)[C@H](C)OC2=O)c1OCOC(=O)C(C)C`: “share of total radioactive residue” 5 % TRR (laying hens, female, fat; oral, 10.7 mg/kg dry feed, 7 days).
`CO[C@H]1C[C@@H]2CC[C@@H](C)[C@@](O)(O2)C(=O)C(=O)N2CCCC[C@H]2C(=O)O[C@H]([C@H](C)C[C@@H]2CC[C@@H](OC(=O)NCCOCCOCCOCCOCCOCCOCCOCCOCCC(=O)N3CCc4cc(Cn5nc(-c6ccc7oc(N)nc7c6)c6c(N)ncnc65)ccc4C3)[C@H](OC)C2)C[C@@H](O)[C@H](C)/C=C(\C)[C@@H](O)[C@@H](OC)C(=O)[C@H](C)C[C@H](C)/C=C/C=C/C=C/1C`: “Fatigue AE leading to dose reduction” 0% (patients with advanced solid tumours; intravenous, 1.6 mg/3 mg weekly, grade ≥3).
With `CCc1ccc(CC/C=C/c2ccc3c(c2)C(=O)CC3)cc1` the Albumin was 32.4 g/L (Sprague-Dawley rat, male; oral, 450 mg/kg/day, 14 days).
For `Clc1nc[n]([Au][PH](c2ccccc2)(c2ccccc2)c2ccccc2)c1Cl`, the CL/F was 5.88 mL/h/kg (NCG mouse, plasma; intraperitoneal, 10 mg/kg).
For `C[C@H](NC(=O)c1c(C(F)F)nn(C)c1Oc1cccc(C(F)(F)F)c1)c1ccc(C(=O)O)cc1`, the half-life was 6.1 h (human, plasma; 500 mg, cycle 1 day 8, mean).
`CC(C)[C@@H]1NC(=O)CNC(=O)[C@H](CC(N)=O)NC(=O)[C@H](CCCNC(=N)N)NC(=O)[C@H](Cc2ccc(O)cc2)NC(=O)[C@H](C(C)C)NC(=O)[C@@H](NC(=O)[C@@H](NC(=O)[C@H](CC(N)=O)NC(=O)[C@H](Cc2c[nH]c3ccccc23)NC(=O)[C@H](C)NC(=O)[C@H](Cc2ccccc2)NC(=O)CN)C(C)C)CSSC[C@@H](C(=O)N[C@@H](Cc2cnc[nH]2)C(=O)N[C@@H](CCCNC(=N)N)C(=O)N[C@@H](CCCNC(=N)N)C(=O)N[C@@H](C)C(=O)N[C@@H](CC(N)=O)C(N)=O)NC(=O)[C@H](C(C)C)NC(=O)[C@H](CCCNC(=N)N)NC1=O` gave a calcium of 1.38 ± 0.03 mmol/L (ICR mice, serum; intraperitoneal, 10 mg/kg, day 5).
Under “mean corpuscular haemoglobin”, `COc1ccc2nc3cc(Cl)ccc3c(Nc3cc(CN4CCCC4)c(O)c(CN4CCCC4)c3)c2n1` is recorded as 16.9 pg (mouse, blood; intraperitoneal, 14 mg/kg).
Under “grade 1 or 2 sinus tachycardia”, `COc1cc2c(Oc3ccc4[nH]c(C)cc4c3F)ccnc2cc1OCC1(N)CC1` is recorded as 0% (paediatric recurrent refractory sarcoma; 10 mg).
Under “blood chemistry level”, `O=S(=O)(Nc1ccccc1)c1ccc(NC(=S)Nc2ccccc2)cc1` is recorded as 0.17 mg/dL (measured: Bu; female mouse, blood; oral, 20 mg/kg daily, 14 days).
`CC(=O)c1c(C)c2cnc(Nc3ccc(C4CCN(CCS(C)(=O)=O)CC4)cn3)nc2n(C2CCCC2)c1=O` — result for “patients with GGT increased”: 6.7% (HR+/HER2- advanced breast cancer patients; oral, 100 mg twice daily, all grades,, monotherapy).
`CCN1[C@@H](C(=O)NC23CCC(C(=O)O)(CC2)CC3)[C@H](c2cccc(Cl)c2F)[C@]2(C(=O)Nc3cc(Cl)ccc32)C12CCCCC2` — result for “grade ≥3 vomiting”: 4.8% (advanced solid tumour patients; oral, dose not given).
For `Clc1ccc(-c2ccccc2)cc1`, the albumin was 3 ± 0.2 g/dL (Sprague-Dawley rat, female, serum; inhalation, 35 µg/rat, 24 h).
Under jump threshold, `CC(C)C[C@H](NC(=O)[C@H](CCC(N)=O)NC(=O)[C@H](CO)NC(=O)[C@H](CO)NC(=O)[C@H](CCCNC(=N)N)NC(=O)[C@H](CCCNC(=N)N)NC(=O)[C@H](CCCNC(=N)N)NC(=O)[C@H](CC(C)C)NC(=O)[C@H](Cc1c[nH]cn1)NC(=O)[C@@H](NC(=O)[C@H](CCCCN)NC(=O)[C@H](CCCNC(=N)N)NC(=O)[C@H](CCCNC(=N)N)NC(=O)[C@H](CCCNC(=N)N)NC(=O)[C@H](CCC(N)=O)NC(=O)[C@H](CCCNC(=N)N)NC(=O)[C@H](CCCNC(=N)N)NC(=O)[C@H](CCCCN)NC(=O)[C@H](CCCCN)NC(=O)[C@H](CCCNC(=N)N)NC(=O)CNC(=O)[C@@H](N)Cc1ccc(O)cc1)[C@@H](C)O)C(=O)N[C@@H](CCCCN)C(N)=O` is recorded as “no effect” (flinch-jump test; rat; intra-CA1 bilateral, dose not given).
With `CC(C)C[C@H](NC(=O)[C@H](CCCCN)NC(=O)OCC1c2ccccc2-c2ccccc21)C(=O)N[C@H](C(=O)N[C@@H](Cc1ccccc1)C(=O)N[C@@H](Cc1ccccc1)C(=O)N[C@@H](CCCCN)C(=O)NCC(=O)N[C@@H](Cc1ccccc1)C(=O)N[C@@H](C)C(=O)N[C@@H](Cc1c[nH]c2ccccc12)C(=O)N[C@@H](CC(N)=O)C(=O)N[C@H](C(=O)N[C@H]1CSSC[C@@H](C(=O)N[C@@H](Cc2c[nH]cn2)C(=O)N[C@@H](CCCNC(=N)N)C(=O)N[C@@H](CCCNC(=N)N)C(=O)N[C@@H](C)C(=O)N[C@@H](CC(N)=O)C(N)=O)NC(=O)[C@H](C(C)C)NC(=O)[C@H](CCCNC(=N)N)NC(=O)[C@H](C(C)C)NC(=O)CNC(=O)[C@H](CC(N)=O)NC(=O)[C@H](CCCNC(=N)N)NC(=O)[C@H](Cc2ccc(O)cc2)NC(=O)[C@H](C(C)C)NC1=O)C(C)C)C(C)C` the calcium was 1.36 ± 0.03 mmol/L (ICR mice, serum; intraperitoneal, 10 mg/kg, day 5).
Under “adverse drug reaction incidence”, `C=CC(=O)N1CC[C@H](n2nc(C#Cc3cc(OC)cc(OC)c3)c3c(N)ncnc32)C1` is recorded as 100% (patients with advanced solid tumours; oral, dose not given, Hyperphosphatemia, any grade, QD, all patients).
For `CN1CCN(S(=O)(=O)c2cc([N+](=O)[O-])ccc2N(CCOS(C)(=O)=O)CCOS(C)(=O)=O)CC1`, “blood urea nitrogen” read 11 mmol/L (naive NOD/SCID mice, pooled blood; intraperitoneal, 25 mg/kg, week 4).
For `Cn1cc(-c2nc(N[C@@H]3CCCC[C@@H]3N)c(F)c3c2C(=O)NC3)cn1`, “hemorrhagic adverse events” read 38% (measured: Epistaxis; patients with relapsed or refractory AML; oral, 60 mg twice daily).
For `[O-][S+]1CCc2nc(N3CCC(c4ncc(Cl)cn4)CC3)nc(NC3(CO)CCC3)c21` (stereo not drawn), “subjects with adverse events” read 10% (phase I trial, measured: abnormal gastrointestinal sounds; idiopathic pulmonary fibrosis patients; 18 mg twice daily).
